Measured values collected from several papers.
Compare with care: the assays were run in different laboratories.

Under tolerability, `N=C(N)Nc1ccc(-c2nc3ccc(-c4ccc5nc(-c6ccc(NC(=N)N)cc6)[nH]c5c4)cc3[nH]2)cc1` is recorded as “not toxic” (FVB mouse; intraperitoneal, 40 mg/kg daily, 7 days).
`CONC(=O)[C@H]1[C@@H](O)[C@@]2(O)c3c(cc(OC)nc3OC)O[C@@]2(c2ccc(C#N)cc2)[C@@H]1c1ccccc1`: tolerability “not toxic” (mouse; oral, 0.5 mg/kg three times weekly, two weeks).
For `COc1ccc2c(c1)c1c(C)c3cnccc3c(C)c1n2CCCN1CCN(C)CC1`, tolerability read “not toxic” (mouse, LPS-induced lung inflammation).
Under tolerability, `C=CC(=O)N1CCCC(n2c(=O)c3ncccc3n(Cc3ccc(Oc4ccccc4)cc3)c2=O)C1` (stereo not drawn) is recorded as “not toxic” (NOD-Scid mouse, Rec1 xenograft; intraperitoneal, 200 mg/kg daily, 5 days/week).
`CC1=C(/C=C/C(=O)N2CCN(C(N)=O)CC2)C(C)(C)CCC1`: tolerability “not toxic” (T17M RHO transgenic mouse; oral, daily dosing).
`O=C(N[C@@H](Cc1coc2ccccc12)B(O)O)[C@@H]1C[C@H]2CC[C@@H]1O2` — result for tolerability: “not toxic” (mouse; oral, 1 and 10 mg/kg daily or intermittent).
`O=C1C=CC(=O)C(c2cc(Cl)ccc2Cl)=C1`: tolerability “not toxic” (mouse; po, 30 mg/kg).
For `CCc1cnc(NC(=O)c2cc(S(=O)(=O)N3CCOCC3)ccc2N(C)C2CCCC2)s1`, tolerability read “not toxic” (mouse, H1975-OR xenograft; intraperitoneal, 10 mg/kg).
For `O=C(NCCCCc1ccccc1)n1c(=O)oc2cc(-c3ccc(F)cc3)ccc21`, tolerability read “not toxic” (mouse; intraperitoneal, 10 mg/kg).

Repeated from above:
`CONC(=O)[C@H]1[C@@H](O)[C@@]2(O)c3c(cc(OC)nc3OC)O[C@@]2(c2ccc(C#N)cc2)[C@@H]1c1ccccc1`: tolerability “not toxic” (mouse; oral, 0.5 mg/kg three times weekly, two weeks).
